Measurements pooled from the literature.
Lines come from different studies, so protocols differ. Numbers after ± are the reported error.
APP: Amyloid-beta precursor protein (APP, Homo sapiens, UniProt P05067)
Chain of UniProt P05067 (whole entry, looked up): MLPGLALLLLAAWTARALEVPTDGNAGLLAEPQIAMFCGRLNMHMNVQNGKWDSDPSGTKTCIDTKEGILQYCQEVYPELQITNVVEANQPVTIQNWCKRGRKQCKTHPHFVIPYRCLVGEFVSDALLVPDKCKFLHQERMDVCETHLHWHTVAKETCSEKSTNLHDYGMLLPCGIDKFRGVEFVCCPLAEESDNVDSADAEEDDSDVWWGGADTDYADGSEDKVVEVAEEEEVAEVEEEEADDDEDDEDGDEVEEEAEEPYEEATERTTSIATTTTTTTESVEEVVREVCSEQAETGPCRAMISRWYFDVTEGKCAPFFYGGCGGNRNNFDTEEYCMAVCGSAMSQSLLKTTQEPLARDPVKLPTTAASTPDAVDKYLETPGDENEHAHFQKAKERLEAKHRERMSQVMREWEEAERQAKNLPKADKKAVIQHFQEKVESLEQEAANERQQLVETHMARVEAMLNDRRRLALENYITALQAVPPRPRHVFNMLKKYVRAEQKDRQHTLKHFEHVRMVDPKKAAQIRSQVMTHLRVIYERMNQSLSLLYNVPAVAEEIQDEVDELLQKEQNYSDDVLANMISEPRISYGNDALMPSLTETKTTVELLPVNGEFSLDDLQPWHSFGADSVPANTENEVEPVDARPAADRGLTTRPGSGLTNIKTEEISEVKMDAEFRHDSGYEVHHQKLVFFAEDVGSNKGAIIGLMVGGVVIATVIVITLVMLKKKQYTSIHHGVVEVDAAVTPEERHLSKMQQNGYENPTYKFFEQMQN
PPIA: Peptidyl-prolyl cis-trans isomerase A (PPIA, Homo sapiens, UniProt P62937)
Chain of UniProt P62937 (whole entry, looked up): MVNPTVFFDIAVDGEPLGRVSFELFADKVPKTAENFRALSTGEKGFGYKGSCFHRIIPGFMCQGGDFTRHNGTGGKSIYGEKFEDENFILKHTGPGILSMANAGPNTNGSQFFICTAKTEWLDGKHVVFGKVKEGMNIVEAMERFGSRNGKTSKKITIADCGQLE
SMPD1: Sphingomyelin phosphodiesterase (SMPD1, Homo sapiens, UniProt P17405)
Chain of UniProt P17405 (whole entry, looked up): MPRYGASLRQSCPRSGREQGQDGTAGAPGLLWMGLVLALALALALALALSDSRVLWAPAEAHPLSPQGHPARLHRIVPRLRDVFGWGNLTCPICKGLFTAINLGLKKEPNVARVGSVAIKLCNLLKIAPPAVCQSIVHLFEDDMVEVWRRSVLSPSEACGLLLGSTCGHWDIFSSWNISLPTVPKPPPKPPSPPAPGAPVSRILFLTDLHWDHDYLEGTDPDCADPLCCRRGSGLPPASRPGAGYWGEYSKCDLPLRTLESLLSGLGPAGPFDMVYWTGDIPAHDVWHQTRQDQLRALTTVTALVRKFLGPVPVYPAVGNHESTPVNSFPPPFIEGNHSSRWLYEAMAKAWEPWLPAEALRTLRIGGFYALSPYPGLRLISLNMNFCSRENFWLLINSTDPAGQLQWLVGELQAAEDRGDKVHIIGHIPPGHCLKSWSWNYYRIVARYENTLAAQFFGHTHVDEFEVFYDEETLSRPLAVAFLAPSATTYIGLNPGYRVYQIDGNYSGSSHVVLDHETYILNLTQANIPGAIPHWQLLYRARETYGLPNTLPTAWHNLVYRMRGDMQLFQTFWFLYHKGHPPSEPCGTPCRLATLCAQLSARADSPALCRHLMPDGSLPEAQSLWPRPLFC
MT-CYB: MT-CYB (Plasmodium falciparum, UniProt Q02768)
Chain of UniProt Q02768 (whole entry, looked up): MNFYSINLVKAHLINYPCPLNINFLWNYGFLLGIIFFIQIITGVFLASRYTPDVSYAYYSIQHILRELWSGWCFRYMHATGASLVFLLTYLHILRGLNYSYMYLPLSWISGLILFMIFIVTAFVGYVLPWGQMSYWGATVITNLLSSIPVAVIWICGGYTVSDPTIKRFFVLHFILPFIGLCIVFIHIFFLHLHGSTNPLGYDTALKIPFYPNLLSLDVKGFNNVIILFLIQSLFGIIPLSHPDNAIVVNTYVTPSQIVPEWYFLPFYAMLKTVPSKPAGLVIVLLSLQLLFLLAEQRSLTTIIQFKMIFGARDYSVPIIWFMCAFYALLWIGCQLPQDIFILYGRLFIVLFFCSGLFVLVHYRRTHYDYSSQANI
Chain of UniProt Q16539 (whole entry, looked up): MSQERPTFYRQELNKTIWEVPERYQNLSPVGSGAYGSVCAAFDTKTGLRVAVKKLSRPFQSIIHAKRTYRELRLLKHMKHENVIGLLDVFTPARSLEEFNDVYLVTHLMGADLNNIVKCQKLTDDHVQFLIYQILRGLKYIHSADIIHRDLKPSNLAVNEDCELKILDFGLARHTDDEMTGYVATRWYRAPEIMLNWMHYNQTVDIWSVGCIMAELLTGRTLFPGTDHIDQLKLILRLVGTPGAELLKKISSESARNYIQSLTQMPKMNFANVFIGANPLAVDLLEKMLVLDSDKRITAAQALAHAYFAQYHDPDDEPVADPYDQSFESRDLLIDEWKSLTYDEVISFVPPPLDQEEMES
Chain of UniProt P50750 (whole entry, looked up): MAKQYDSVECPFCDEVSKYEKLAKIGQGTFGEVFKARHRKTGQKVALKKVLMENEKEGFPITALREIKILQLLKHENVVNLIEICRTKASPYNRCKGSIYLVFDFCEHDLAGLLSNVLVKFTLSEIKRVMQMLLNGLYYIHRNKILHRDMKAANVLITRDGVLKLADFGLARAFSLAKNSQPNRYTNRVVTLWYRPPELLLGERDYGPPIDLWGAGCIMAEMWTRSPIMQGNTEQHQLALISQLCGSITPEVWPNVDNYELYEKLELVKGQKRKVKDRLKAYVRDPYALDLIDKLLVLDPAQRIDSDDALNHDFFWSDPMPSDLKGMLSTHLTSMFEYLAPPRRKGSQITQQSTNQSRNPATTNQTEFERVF
Chain of UniProt Q62645 (whole entry, looked up): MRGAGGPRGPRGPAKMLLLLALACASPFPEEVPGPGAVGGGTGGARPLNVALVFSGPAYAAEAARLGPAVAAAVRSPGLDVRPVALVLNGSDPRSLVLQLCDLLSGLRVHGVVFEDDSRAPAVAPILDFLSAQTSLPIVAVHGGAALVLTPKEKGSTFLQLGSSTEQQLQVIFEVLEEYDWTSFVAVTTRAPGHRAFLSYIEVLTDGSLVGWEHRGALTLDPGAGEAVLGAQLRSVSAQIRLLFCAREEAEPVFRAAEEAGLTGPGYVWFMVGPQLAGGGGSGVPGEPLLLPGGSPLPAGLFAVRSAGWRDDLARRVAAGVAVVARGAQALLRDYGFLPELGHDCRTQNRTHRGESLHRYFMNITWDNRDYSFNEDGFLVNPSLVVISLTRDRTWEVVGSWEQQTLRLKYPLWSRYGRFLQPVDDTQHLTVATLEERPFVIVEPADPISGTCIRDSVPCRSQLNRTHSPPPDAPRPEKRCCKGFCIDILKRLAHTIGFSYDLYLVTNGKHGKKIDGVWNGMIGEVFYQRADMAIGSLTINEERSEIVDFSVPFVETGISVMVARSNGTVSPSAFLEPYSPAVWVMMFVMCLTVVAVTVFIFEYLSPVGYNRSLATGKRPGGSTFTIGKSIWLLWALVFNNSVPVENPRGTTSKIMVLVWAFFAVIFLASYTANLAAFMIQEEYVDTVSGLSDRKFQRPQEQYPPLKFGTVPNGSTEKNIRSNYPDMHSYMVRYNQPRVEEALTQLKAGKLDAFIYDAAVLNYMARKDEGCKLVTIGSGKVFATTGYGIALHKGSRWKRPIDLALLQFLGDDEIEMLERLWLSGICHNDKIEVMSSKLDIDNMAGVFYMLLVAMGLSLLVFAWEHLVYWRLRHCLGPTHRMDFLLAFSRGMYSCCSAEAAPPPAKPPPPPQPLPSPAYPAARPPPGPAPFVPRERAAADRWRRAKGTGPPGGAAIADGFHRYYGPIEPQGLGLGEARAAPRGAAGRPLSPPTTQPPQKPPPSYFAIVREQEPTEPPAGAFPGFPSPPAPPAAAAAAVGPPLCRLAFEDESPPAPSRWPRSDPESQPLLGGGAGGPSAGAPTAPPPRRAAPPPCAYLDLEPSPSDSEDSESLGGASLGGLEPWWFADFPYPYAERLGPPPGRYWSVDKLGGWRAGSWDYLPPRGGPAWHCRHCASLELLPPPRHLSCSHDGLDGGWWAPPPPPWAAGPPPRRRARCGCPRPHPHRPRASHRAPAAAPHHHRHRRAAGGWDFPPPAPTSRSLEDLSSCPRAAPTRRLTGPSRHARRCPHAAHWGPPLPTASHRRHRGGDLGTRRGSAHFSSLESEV
Chain of UniProt Q8TBX8 (whole entry, looked up): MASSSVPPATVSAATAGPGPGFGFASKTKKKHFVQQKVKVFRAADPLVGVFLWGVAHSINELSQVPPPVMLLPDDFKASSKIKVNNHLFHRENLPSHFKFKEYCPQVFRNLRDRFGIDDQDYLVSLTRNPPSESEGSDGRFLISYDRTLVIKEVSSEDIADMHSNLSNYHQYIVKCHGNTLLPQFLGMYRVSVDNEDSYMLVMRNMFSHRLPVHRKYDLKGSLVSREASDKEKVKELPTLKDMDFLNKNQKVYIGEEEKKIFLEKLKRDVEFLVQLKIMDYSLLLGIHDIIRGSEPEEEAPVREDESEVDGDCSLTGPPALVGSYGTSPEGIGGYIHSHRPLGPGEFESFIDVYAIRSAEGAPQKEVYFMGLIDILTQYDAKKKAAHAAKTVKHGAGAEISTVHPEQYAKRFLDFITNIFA
Chain of UniProt P09211 (whole entry, looked up): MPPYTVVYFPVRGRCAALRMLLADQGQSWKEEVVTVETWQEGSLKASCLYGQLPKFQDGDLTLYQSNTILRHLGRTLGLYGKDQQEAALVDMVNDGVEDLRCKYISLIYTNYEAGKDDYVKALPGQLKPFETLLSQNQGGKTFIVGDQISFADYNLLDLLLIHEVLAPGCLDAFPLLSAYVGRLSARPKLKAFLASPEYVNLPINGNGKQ

SMILES	target	test	test system	conditions	inhibition
COc1ccc2nc(/C=C/c3cccc([N+](=O)[O-])c3)n(-c3ccc(C(=O)O)cc3)c(=O)c2c1	Ionotropic glutamate receptor NMDA 1/2D (Rattus norvegicus, UniProt P35439+Q62645)	ion current, inhibitor, whole-cell voltage clamp	HEK293	10 µM, instantaneous current, with: glutamate pre-applied	~66%
CNC(=O)[C@H](Cc1c[nH]c2ccccc12)NC(=O)[C@@H](CC(=O)NO)CC(C)C	Matrix metalloproteinase-14, ectodomain (MMP14, Homo sapiens, UniProt P50281)	amyloid plaque degradation	Tg2576 brain sections	100 µM, 5 days, 37 °C	inhibited
CC[C@H](C)[C@H](NC(=O)[C@@H](NC(=O)[C@@H](N)C(C)C)C(C)C)C(=O)N[C@H](C(N)=O)C(C)C	APP	amyloid aggregation, inhibitor, fluorescence		4 µM, 24 h	6.9%
CC(C)(C)OC(=O)NCCNC(=O)CN1C(=O)Cc2c([nH]c3ccc(Br)cc23)-c2ccc(Cl)cc21	Trypanothione synthetase (Leishmania infantum, UniProt A4I2Z3)	enzyme activity		30 µM	37%
COc1cc(OC)cc(C(=O)Nc2ccc(Cc3ccc(NC(=O)c4cc(OC)cc(OC)c4)cc3)cc2)c1	PPIA	enzyme activity, inhibitor		10 µM	43%
CC[C@H](C)[C@H](NC(=O)[C@@H](NC(=O)[C@H]1CCCN1)C(C)C)C(=O)N[C@@H](C)C(N)=O	APP	amyloid aggregation, inhibitor, fluorescence		2 µM, 24 h	60.8%
S=c1nc(C2CC2)[nH]c2ccccc12	SMPD1	inhibitor		concentration not given, pH 6.5, with: sphingomyelin substrate	inhibited
CN(C)C/C=C/C(=O)Nc1cccc(C(=O)Nc2ccc(Nc3nccc(-c4c(-c5ccccc5)nn5ccccc45)n3)cc2)c1	Phosphatidylinositol 5-phosphate 4-kinase type-2 gamma (PIP4K2C, Homo sapiens, UniProt Q8TBX8)	ATP-biotin probe labeling, KiNativ	A-375	1 µM, 3 h, second of two sites	24.3%
CCC[C@H](N)C(=O)N[C@H](C(=O)N[C@H](C(=O)N[C@@H](C)C(N)=O)[C@@H](C)CC)C(C)C	APP	amyloid aggregation, inhibitor, fluorescence		4 µM, 24 h	51.9%
COC(=O)c1cc(CCc2ccc(NC(=O)c3cc(OC)cc(OC)c3)c(C(=O)OC)c2)ccc1NC(=O)c1cc(OC)cc(OC)c1	PPIA	enzyme activity, inhibitor		10 µM	15.6%
Clc1ccc(SCCOCCN2CCCCCC2)cc1.O=C(O)C(=O)O	SMPD1	enzyme activity, inhibitor		concentration not given, with: HMU-PC substrate	inactive
Cc1cccc(-c2nn(-c3ccccc3)cc2C(=O)Nc2nnc(C)o2)c1	MT-CYB	enzyme activity, inhibitor		0.5 µM	47.9%
O=C(O)/C=C/C1=CC(=O)C(=O)C=C1	Glutathione S-transferase P (GSTP1, Homo sapiens, UniProt P09211)	enzyme activity	human placenta	10 to 50 µM, with: CDNB	23 to 67%
Cc1cc(NC(=O)c2cccc(NC(=O)/C=C/CN(C)C)c2)ccc1Nc1nccc(-c2cccnc2)n1	Mitogen-activated protein kinase 14 (MAPK14, Homo sapiens, UniProt Q16539)	ATP-biotin kinase labeling, KiNativ	A-375	1 µM, 3 h	13.2%
Cc1cc(Nc2ccc(C(F)(F)F)nc2)n2nc(C(C)(F)F)nc2n1	off-target panel			10 µM, all except adenosine A3	≤ 19%
CCCC[C@H](NC(=O)C(=O)CCCCc1ccc(OC)cc1)C(=O)N[C@@H](C)C(=O)OC(C)(C)C	Cytosolic phospholipase A2 (PLA2G4A, Homo sapiens, UniProt P47712)	enzyme activity, mixed micelle		0.091 mole fraction	73.4 ± 1.3%
CC(C)(C)c1cnc(CSc2cnc(NC(=O)C3CCNCC3)s2)o1	Cyclin-dependent kinase 9 (CDK9, Homo sapiens, UniProt P50750)	probe labeling, KiNativ live-cell profiling	MOLT-4 CRBN knockout	0.25 µM	15.9%
CC[C@H](C)[C@H](NC(=O)[C@H](NC(=O)[C@@H](N)C(C)C)C(C)C)C(=O)N[C@@H](C)C(N)=O	APP	amyloid aggregation, inhibitor, fluorescence		2 µM, 24 h	89.3%
NS(=O)(=O)c1ccc(N2N=C(c3ccc(F)cc3O)CC2c2ccc(Br)cc2)cc1 (centres unmarked)	Carbonic anhydrase 2 (CA2, Homo sapiens, UniProt P00918)	enzyme activity, inhibitor, absorbance		1 mM	26%
CC[C@H](C)[C@H](NC(=O)[C@@H](NC(=O)[C@@H](N)C(C)C)C(C)C)C(=O)NC(C)(C)C(N)=O	APP	amyloid aggregation, inhibitor, fluorescence		4 µM, 24 h	42%
Cc1cccc(C)c1C(=O)OCC(=O)[C@H](CCCCN)NC(=O)[C@H](CCCN=C(N)N)NC(=O)OCc1ccccc1	Cathepsin B (CTSB, Homo sapiens, UniProt P07858)	enzyme activity, inhibitor	neuroblastoma cells	50 µM, 6 h, 37 °C, with: Z-Arg-Arg-AMC	inhibited
c1ccc(CCNc2ncnc3c2[nH]c2ccccc23)cc1	MT-CYB	enzyme activity, inhibitor		0.5 µM	63.9%
CC[C@H](C)[C@H](NC(=O)[C@@H]1CCCN1C(=O)[C@@H]1CCCN1)C(=O)N[C@@H](C)C(N)=O	APP	amyloid aggregation, inhibitor, fluorescence		2 µM, 24 h	24.7%

Excerpt of the above:
SMILES	target	test	test system	conditions	inhibition
CC(C)(C)OC(=O)NCCNC(=O)CN1C(=O)Cc2c([nH]c3ccc(Br)cc23)-c2ccc(Cl)cc21	Trypanothione synthetase (Leishmania infantum, UniProt A4I2Z3)	enzyme activity		30 µM	37%
COc1cc(OC)cc(C(=O)Nc2ccc(Cc3ccc(NC(=O)c4cc(OC)cc(OC)c4)cc3)cc2)c1	PPIA	enzyme activity, inhibitor		10 µM	43%
CC[C@H](C)[C@H](NC(=O)[C@@H](NC(=O)[C@H]1CCCN1)C(C)C)C(=O)N[C@@H](C)C(N)=O	APP	amyloid aggregation, inhibitor, fluorescence		2 µM, 24 h	60.8%
S=c1nc(C2CC2)[nH]c2ccccc12	SMPD1	inhibitor		concentration not given, pH 6.5, with: sphingomyelin substrate	inhibited
